Published values from different studies.
Every numbered part comes from another study and shows a few of its results, in no order. Positions count from the first letter of the parent shown.

Block 1
Target: PABPC1L2, full length, GST fusion (mouse, UniProt A0ABA7IW68)
Technique: RNAcompete
Molecule type: RNA
Matrix: in vitro
Concentration: 20 nM
Notes: 7-mer, probes averaged, single round
Baseline: mean of 7-mers
Reading: higher = stronger binding
Endpoint: 7-mer Z-score
Residues (chain): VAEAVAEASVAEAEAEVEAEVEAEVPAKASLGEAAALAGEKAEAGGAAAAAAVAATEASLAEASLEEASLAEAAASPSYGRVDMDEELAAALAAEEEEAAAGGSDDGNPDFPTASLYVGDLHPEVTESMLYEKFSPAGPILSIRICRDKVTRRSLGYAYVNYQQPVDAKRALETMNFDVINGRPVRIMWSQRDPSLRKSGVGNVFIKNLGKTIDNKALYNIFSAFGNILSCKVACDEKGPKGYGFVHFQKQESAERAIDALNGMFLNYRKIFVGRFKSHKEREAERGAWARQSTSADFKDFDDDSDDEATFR
UCUUGAC: -0.421
UACGAUG: -0.159
UCGUACC: -0.316
UUCAUAU: -0.151
AGUCAGG: 0.0913
GGGUAGG: 0.227
AUCCAAC: -0.0645
UUCAAAA: 1.8
UCAAUUA: -0.0246
ACCCGGA: -0.0301
CAUCUAA: -0.0337
GAGUCAC: -0.166
GAUUGGC: -0.0863
UCGUUAG: -0.345
ACGGAAC: 0.213
AUACGUG: -0.106
UACCUAU: -0.278
AUUGACC: 0.0334
AUUGCUA: -0.135
UAGCAAG: -0.0899
UUGCACU: -0.248
AAAUAUA: 1.76

Block 2
Target: RNA binding protein fox-1 homolog 2, RRM domain, GST-SBP tag (RBFOX2, Homo sapiens, UniProt O43251-10, residues 100-194)
Technique: RNA Bind-n-Seq
Molecule type: RNA
Matrix: in vitro
Concentration: 365 nM
Notes: natural RNA segment, single round, ends assumed
Baseline: no-protein control
Reading: higher = stronger binding
Endpoint: RBNS enrichment (R)
Construct (chain): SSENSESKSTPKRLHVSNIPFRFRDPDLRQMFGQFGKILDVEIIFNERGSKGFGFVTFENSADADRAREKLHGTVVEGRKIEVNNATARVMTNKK
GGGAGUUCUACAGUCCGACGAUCCAGAGAAAGGGAGGUGAGGUUUCCACCAUGUUGGCUGUUGACUCUCCCUGUAUGUUAAACCCUUGACCAGUUUACUCGUUUCUAUCCUGGAAGAUUUUUAACAAAGGGAAUGGAAUUCUCGGGUGCCAA: 0.608
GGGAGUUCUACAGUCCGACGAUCAAUGAAAGCAGGCAAAAGUGCUGUCAUUGUGAUACCGUCCCACUCAGAUGUCUAACGGGAGCUUGCUUAAGGGGAAUGUUAGCAUUGCCAAGUGCGAUGGUGUUGCCUUUUGGAAUUCUCGGGUGCCAA: 0.255
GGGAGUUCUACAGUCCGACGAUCCUUCUGACCUUGACACUCCGGCCUCAAGCAGUUGCUGCAGAGUGGUUCUUUUUGCAUUUAAUGCCCAUCACUAUCCUCAUCCCAAAUAAAAUCCAUUCAUACUAGUGGACUGGAAUUCUCGGGUGCCAA: 0.688
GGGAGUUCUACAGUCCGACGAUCAUGCAAGCCAUUCAGUUAUCAGGACUGUGAAUUAACACUGUAUGAAUACAUUUCUGUACACCUUAUUGUUUGGCCAGAGGGCCACCAAGUGUACUUAUAUGUAAUCCUUAUGGAAUUCUCGGGUGCCAA: 0.679
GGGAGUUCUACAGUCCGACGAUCGGGAAGGUGACCUGGCCAGAGCCAAGAAACACUUUCAGAAAAACAAAUGUGAAGGGGAGAGACAGGGGCCGCCCUUGGCUCCUGUCCCUGCUGCUCCUCUAGGCCUCACUUGGAAUUCUCGGGUGCCAA: 0.213
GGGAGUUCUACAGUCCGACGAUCUUUUGUAAUUUUAGGUAGUUAUCAGUUUCUCCACUAGCUCCAUGUUCUAGCUUUUUCCUCCCCACAGGACCUUGGGUAAAAUGGUCAUUUGUAAGGUGAAUUUCAAAGGGUGGAAUUCUCGGGUGCCAA: 0.596
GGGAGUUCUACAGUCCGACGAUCACGGGCAAAGCAGAGAUCUGGUUUGAAAGCUGGGGAAAUUGAGAAGCCAGAUCGAUUUGACUUUGCUUCCAUGCUGUGUGUUCUGAAAGGACAUGGCUCUAAAAUUUCCUUGGAAUUCUCGGGUGCCAA: 0.554
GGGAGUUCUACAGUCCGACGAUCCAGGAGGUGAGCAUAUUCUCUUGGUGCAGCUCCCAGCUUCAGACCUGCUGAGGGACCCUUCAACUGGCCAGAGCCUGGAUCAAUUUCAUGUUGAUCAGUCAGAGGAACUGUGGAAUUCUCGGGUGCCAA: 0.404
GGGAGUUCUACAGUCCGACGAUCCUUCGGUGUCCUCCACACUGACACAGAUCCCCUCCUCAUGGUCGGCAGUUGUGCCCGUUUUUUGACAUCUGUGUCCCUUCAUGUUGCAUCAUCUGUACUAUUCUGUGUUAUGGAAUUCUCGGGUGCCAA: 0.611
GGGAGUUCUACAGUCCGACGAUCGUUAGAAUGUCUGCCUUACUGGUUUCCCCAGGGAAGGAAAAAUACACUUCCACCCUUUUUUCUAAGUGUUCGUCUUUAGUUUUGAUUUUGGAAAGAUGUUAAGCAUUUAUUGGAAUUCUCGGGUGCCAA: 0.905
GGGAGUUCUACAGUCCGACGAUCGGACCAACCAAAGUGUGUCAACCCUGUUUCCUUAAAAGAGGCUAUGAAUCCCAAAGGCCACAUCCAAGACAGGCAAUAAUGAGCAGAGUUUACAGCUCCUUUAAUAAAAUUGGAAUUCUCGGGUGCCAA: 0.396
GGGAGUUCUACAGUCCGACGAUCCUACCACAGAUGCCUGAAGAAGUUCCUCACUAUCUGCAAAUGUGGCUCUCAGGCCCUUCCUGAUGUGAUGAAUGAAUCUACUAAUCAUUUCUUGACCAUUCAUUUUAUCAUGGAAUUCUCGGGUGCCAA: 0.384

Block 3
Target: Sal-like protein 4, full length isoform A (SALL4, Homo sapiens, UniProt Q9UJQ4, residues 1-1053)
Chain of UniProt Q9UJQ4 (whole entry, looked up): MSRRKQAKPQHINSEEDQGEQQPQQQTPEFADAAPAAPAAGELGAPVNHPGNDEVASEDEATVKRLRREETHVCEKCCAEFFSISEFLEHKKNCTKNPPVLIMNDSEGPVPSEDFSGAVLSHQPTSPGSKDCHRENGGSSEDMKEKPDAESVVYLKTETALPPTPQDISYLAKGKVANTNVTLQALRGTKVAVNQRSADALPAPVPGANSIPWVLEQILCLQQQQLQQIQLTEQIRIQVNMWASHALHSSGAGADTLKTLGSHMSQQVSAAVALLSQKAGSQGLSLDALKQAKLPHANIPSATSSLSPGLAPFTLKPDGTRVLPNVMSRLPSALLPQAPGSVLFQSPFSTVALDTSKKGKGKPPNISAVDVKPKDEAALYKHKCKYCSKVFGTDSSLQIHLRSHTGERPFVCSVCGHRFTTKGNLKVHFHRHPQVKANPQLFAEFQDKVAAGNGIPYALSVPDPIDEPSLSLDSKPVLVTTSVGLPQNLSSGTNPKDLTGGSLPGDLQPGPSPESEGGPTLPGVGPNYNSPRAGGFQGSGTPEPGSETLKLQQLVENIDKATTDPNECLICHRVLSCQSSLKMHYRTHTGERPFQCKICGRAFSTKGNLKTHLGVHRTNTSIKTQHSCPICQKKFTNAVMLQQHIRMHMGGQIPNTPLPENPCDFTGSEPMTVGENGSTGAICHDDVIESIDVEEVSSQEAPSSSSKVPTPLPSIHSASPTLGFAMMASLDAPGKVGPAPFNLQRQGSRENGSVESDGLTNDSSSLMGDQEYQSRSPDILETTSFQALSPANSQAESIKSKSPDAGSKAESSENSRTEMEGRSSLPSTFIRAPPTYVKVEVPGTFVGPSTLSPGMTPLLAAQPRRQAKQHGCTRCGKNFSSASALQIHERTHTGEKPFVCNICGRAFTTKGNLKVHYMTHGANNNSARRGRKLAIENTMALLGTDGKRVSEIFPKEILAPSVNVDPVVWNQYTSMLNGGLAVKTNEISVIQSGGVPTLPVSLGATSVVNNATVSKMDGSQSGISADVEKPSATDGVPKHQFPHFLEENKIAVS
Technique: universal PBM
Molecule type: double-stranded DNA, one strand shown
Matrix: in vitro
Concentration: 600 nM
Notes: 8-mer, flanks averaged, mean of replicates
Reading: higher = stronger binding
Endpoint: E-score
AACTAACG: 0.0887
AACTCCAC: 0.0164
ATAGTTCC: 0.111
ACTATCAA: 0.102
AGTGTTCG: -0.0216
CGCAACCC: -0.176
CTTAGCCA: -0.00294
GATGGCGC: -0.302
TCGCTGAA: 0.0534
GCTTGGGA: -0.189
CCCGTCCC: -0.375
ATTACACG: 0.155
CGATCAAG: -0.0605
ACGATCAC: -0.119
CCCTTTGC: -0.104
AGACTATA: 0.21
CCGGACCC: -0.375
CAGGTTTC: -0.127

Block 4
Target: ABI1, truncated, D143A, DHFR fusion (Arabidopsis thaliana)
Technique: DHFR PCA, deep sequencing
Matrix: yeast
Notes: methotrexate growth selection, single substitutions
Added: (+)-ABA 0.032 µM
Baseline: wild-type fitted maximum
Reading: higher = stronger binding
Endpoint: relative binding score
Parent: PYL1, truncated, DHFR fusion (Arabidopsis thaliana); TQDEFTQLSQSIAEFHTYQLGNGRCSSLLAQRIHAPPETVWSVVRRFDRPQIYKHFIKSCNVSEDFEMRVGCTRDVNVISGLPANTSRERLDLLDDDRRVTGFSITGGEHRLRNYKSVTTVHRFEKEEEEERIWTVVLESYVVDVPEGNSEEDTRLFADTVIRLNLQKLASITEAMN
L20G: 22.8%
L166H: 3.94%
T101R: -2.31%
H34M: 41.3%
T160P: -1.27%
L8H: 4.64%
R155E: -2.82%
S59K: 0.821%
R163W: -1.87%
Q51G: 20.1%
G21Y: -2.43%
E147H: 11.3%
R123V: -1.23%
Q7G: 21.9%
Y141I: 1.57%
V161E: 3.54%
P50Y: -0.126%

Block 5
Target: Histone acetyltransferase KAT6A, winged helix 1, GST fusion (KAT6A, Homo sapiens, UniProt Q92794, residues 1-85)
Technique: protein binding microarray
Molecule type: double-stranded DNA, one strand shown
Matrix: in vitro
Concentration: not given
Notes: 8-mer, flanks averaged, mean of 2 arrays, mostly near background
Baseline: not given
Reading: higher = stronger binding
Endpoint: E-score
Residues (chain): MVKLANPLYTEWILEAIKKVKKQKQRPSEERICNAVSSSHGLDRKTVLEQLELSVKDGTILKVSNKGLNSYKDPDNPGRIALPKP
TCCGAGCA: -0.0503
CCAGGTGC: -0.129
ACGGGACA: 0.258
ACGCAGAA: 0.0565
AACGTTAG: 0.111
AAGATAGG: -0.236
GCGGTCAC: 0.281
CACATATG: -0.148
GATCAGTA: -0.158
CCCGTAGG: 0.297
AAGCAGAA: -0.0934
AAGAATAT: -0.0715
GCACGGCA: 0.313
ACATTCGA: -0.0872
CGCGCTAC: 0.417
AACAAGGG: -0.034
ACAGCGAG: 0.11
GTTCCCTA: -0.246
GAAGGGTC: 0.0132
TGAACCCA: -0.0357
CACACCAC: -0.234

Block 6
Target: Interferon regulatory factor 7, full length, phosphomimetic (IRF7, Homo sapiens, UniProt Q92985, residues 1-503, S471D/S472D/S475D/S476D/S477D/S483D/S484D/S487D)
Technique: protein-binding microarray
Molecule type: double-stranded DNA, one strand shown
Matrix: in vitro
Concentration: 2200 nM top
Notes: 60-bp whole probe
Added: salmon DNA 0.4 mg/ml
Baseline: random background probes
Reading: higher = stronger binding
Endpoint: fitted relative affinity
All sequences stand within: GCCTAGCAC … GTCTTGATTCGCTTGACGCTGCTG
Residues (chain): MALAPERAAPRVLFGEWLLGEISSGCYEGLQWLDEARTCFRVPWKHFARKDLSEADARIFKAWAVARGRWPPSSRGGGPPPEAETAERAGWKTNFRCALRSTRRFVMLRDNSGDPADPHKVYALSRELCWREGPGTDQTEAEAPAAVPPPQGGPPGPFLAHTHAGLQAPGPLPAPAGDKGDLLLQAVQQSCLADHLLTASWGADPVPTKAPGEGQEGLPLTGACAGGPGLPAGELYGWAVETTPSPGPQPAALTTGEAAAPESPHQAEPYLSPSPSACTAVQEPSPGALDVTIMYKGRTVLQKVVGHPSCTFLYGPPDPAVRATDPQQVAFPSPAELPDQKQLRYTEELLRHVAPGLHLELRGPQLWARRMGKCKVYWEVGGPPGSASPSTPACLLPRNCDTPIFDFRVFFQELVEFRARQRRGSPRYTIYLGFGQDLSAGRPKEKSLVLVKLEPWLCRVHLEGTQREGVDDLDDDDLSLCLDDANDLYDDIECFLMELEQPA
TCAACTTCTCTTTTGGCACTGTGCTAG: 1.56 z-score
CATGCTCTTATATACCTGTATGTGCTA: 1.2 z-score
GACGAACCGAGACTGGAGACGTGCTAG: 0.123 z-score
GACGATTTCGGGTATCGAGACGTGCTA: 3 z-score
GACGAACTGGAGACTGGAGACGTGCTA: -0.274 z-score
TCAACTTTCTATCTCTGACTGTGCTAG: 4.36 z-score
CCATGTTGCAGACTCGAAGGGTGCTAG: 0.414 z-score
TTAGGACTGGGGACTGGGATAGTGCTA: -1.04 z-score
TTAGGTCTAGGTATCGGTTAGTGCTAG: 0.04 z-score
AGCCTTATCCCTAATCTCAGCGTGCTA: 0.769 z-score
TTAGATATGAGTCTCGATTAGTGCTAG: 0.0136 z-score
TTCGGTTTCGGTATCGGTTAGTGCTAG: 9.76 z-score
TCTCTTTTGGCTTTCCTTTAGTGCTAG: 3.4 z-score
GACGATTTCGGGTATCGAGAGGTGCTA: 2.8 z-score
CACGATCTCAGTTTCGAGACGTGCTAG: 3.62 z-score
TCAAGTCCCCTCTTCTGACTGTGCTAG: 0.945 z-score
GACGGACTGCTACTGGTGACGTGCTAG: -0.122 z-score
GACGGACCGGGTTTCGGGACGTGCTAG: 0.77 z-score
TTAGGTTTCTGTTCCGGTTAGTGCTAG: 4.65 z-score
TTAGAACTGACACTGGATTAGTGCTAG: -0.358 z-score
TTAGGACTGGGACTGGGTTTGTGCTAG: -0.732 z-score
TTCACTCTCTGCTTGTATCTGTGCTAG: 2.23 z-score
GACGGACTGGGTATCGGGAGGTGCTAG: -0.693 z-score
TTAGGTCTCGGTTACGGTTAGTGCTAG: 0.937 z-score
TCAACTTTCACTTCTCCACTGTGCTAG: 9.24 z-score
